Measured values pooled from the literature.
Each line is one published result; not all experiments were run side by side.
Target: Mitogen-activated protein kinase kinase kinase 6 (MAP3K6, Homo sapiens, UniProt O95382)

Cc1cnc2nc1Nc1cccc(c1)COC/C=C/COCc1cc(ccc1OCCN1CCOCC1)N2
remaining binding (binding, competition with immobilised ligand; 0.1 µM): 71%

C=CC(=O)N1CCc2ccc(-n3c(=O)ccc4cnc5ccc(-c6cnn(C)c6)cc5c43)cc21
remaining binding (KINOMEscan; 1 µM; baseline: DMSO control): 100%

CNC(=O)C1CCN(c2cc(C)c(F)cc2NC(=O)c2ccc(-c3cc(O)ccc3C)c(C)c2)CC1
remaining binding (binding, competition with immobilised ligand; 1 µM): 92%

COc1cc(Nc2nc(C)cc(-c3cnn4nc(OC)ccc34)n2)cc(C(F)(F)F)c1
remaining activity (inhibitor; 1 µM, ASK2; baseline: control): 66%

Nc1ncc2c(n1)-c1c([nH]c3ccc(C4=CCOCC4)cc13)CCC2
remaining binding (binding, competition with immobilised ligand; 1 µM): 98%

COc1cc(Nc2nccc(-c3cnn4nc(OC)ccc34)n2)cc(C(F)(F)F)c1
remaining binding (binding, competition with immobilised ligand; 1 µM): 100%

CC(C)=CC1OC(C)(C)C2C=C3C(=O)C(Cl)=CC(O)C3C3C(O)C4OC4C(=O)C132 (stereo not drawn)
remaining binding (cell-free assay, competition with immobilised ligand; 10 µM): 93%

CNC1C[S+]2CC[S+]3CC[S+](C1)[Ru-4]321([N]=C=S)[n]2c3ccc(OC)cc3c3c4c(c5cc(F)c[n+]1c5c32)C(=O)NC4=O (stereo not drawn)
remaining binding (KinomeScan; 0.1 µM; baseline: untreated): 88%

Nc1ncc(-c2cc(-c3cnn(CC(F)(F)F)c3)ncc2F)nc1C(=O)NC1CNCC(F)C1 (stereo not drawn)
remaining activity (enzyme activity; 1 µM; baseline: DMSO control): 99.4%

COc1c(Cl)cccc1Nc1c(-c2ccncc2C#C[C@@]2(C)CCCN2C(=O)/C=C/CN(C)C)[nH]c2c1C(=O)NCC2
remaining binding (binding, competition with immobilised ligand; 3 µM): 71%

CCN1CCN(Cc2ccc(C(=O)Nc3ccc(C)c(NCc4cnc5[nH]ccc5c4OC)c3)cc2C(F)(F)F)CC1
remaining binding (binding, competition with immobilised ligand; 1 µM): 16%

C=CC(=O)N1CCCC(n2c(=O)c3ncccc3n(Cc3ccc(Oc4ccccc4)cc3)c2=O)C1 (stereo not drawn)
remaining binding (cell-free assay, competition with immobilised ligand; 1 µM): 80%

CCn1cc(C(=O)O)c(=O)c2c(N)c(F)c(NC3CCCCC3)cc21
inhibition (kinase activity; 0.1 µM, together with: ATP at Km): -4.4%

C=CC(=O)Nc1cc(-c2nn(C3CCN(CCNC(=O)[C@H](C)CCC45CC6CC(CC(C6)C4)C5)CC3)c3ncnc(N)c23)ccc1Oc1ccccc1
inhibition (inhibitor, KiNativ profiling; biochemical; 2 µM): 20.8%

Cc1ccc(-c2c(/C=C(\C#N)C(=O)NC(C)C)n(CCCO)c3ncnc(N)c23)cc1
remaining binding (cell-free assay, competition with immobilised ligand; 1 µM): 87%

Excerpt of the above:
Nc1ncc(-c2cc(-c3cnn(CC(F)(F)F)c3)ncc2F)nc1C(=O)NC1CNCC(F)C1 (stereo not drawn)
remaining activity (enzyme activity; 1 µM; baseline: DMSO control): 99.4%

COc1c(Cl)cccc1Nc1c(-c2ccncc2C#C[C@@]2(C)CCCN2C(=O)/C=C/CN(C)C)[nH]c2c1C(=O)NCC2
remaining binding (binding, competition with immobilised ligand; 3 µM): 71%
